Results collected from several papers.
Compare with care: the assays were run in different laboratories.
UniProt Q96D53, sequence (whole entry, looked up): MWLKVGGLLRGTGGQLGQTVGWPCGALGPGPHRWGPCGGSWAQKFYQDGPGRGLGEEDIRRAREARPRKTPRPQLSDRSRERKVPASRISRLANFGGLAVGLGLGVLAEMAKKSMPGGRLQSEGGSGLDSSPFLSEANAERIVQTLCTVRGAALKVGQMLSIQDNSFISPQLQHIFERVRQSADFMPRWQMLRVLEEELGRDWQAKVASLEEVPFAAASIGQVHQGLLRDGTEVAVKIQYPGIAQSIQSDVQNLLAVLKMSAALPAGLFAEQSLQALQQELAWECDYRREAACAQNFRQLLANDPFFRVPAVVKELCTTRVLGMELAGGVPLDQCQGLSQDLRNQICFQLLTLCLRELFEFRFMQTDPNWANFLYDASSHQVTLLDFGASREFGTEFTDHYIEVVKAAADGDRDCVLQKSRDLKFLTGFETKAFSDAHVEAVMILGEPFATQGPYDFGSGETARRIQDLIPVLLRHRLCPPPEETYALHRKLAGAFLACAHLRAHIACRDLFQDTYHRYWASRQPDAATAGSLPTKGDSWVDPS
UniProt Q13873, sequence (whole entry, looked up): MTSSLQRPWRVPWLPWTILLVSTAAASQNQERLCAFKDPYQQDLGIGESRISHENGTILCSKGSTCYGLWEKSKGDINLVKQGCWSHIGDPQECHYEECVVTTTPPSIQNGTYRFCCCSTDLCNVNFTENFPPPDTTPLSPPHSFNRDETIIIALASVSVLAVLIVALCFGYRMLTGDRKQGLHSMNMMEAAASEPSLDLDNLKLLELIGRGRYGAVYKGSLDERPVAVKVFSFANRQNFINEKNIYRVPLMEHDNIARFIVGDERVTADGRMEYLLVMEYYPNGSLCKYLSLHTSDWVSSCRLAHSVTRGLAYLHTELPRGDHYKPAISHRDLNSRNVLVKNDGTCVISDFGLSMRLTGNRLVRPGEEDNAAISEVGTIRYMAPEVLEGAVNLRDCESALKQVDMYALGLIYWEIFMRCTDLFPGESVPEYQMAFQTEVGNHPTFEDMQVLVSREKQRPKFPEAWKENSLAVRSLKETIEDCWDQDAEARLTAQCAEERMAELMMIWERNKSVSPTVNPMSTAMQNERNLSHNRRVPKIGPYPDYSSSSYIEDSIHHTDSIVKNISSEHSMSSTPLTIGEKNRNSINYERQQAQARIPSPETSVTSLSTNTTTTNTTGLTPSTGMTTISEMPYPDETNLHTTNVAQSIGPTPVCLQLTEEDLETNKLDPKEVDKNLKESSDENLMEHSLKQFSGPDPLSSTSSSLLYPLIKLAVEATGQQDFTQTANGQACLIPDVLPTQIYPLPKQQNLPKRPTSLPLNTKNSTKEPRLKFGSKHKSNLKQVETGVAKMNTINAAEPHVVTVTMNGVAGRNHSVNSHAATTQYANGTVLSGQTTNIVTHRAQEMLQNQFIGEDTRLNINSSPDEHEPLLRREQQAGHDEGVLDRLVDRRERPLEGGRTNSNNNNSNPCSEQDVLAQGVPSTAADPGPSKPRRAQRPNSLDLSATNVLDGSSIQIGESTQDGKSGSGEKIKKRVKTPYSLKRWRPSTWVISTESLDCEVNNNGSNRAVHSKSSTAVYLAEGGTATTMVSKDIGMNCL
UniProt Q9BYP7, sequence (whole entry, looked up): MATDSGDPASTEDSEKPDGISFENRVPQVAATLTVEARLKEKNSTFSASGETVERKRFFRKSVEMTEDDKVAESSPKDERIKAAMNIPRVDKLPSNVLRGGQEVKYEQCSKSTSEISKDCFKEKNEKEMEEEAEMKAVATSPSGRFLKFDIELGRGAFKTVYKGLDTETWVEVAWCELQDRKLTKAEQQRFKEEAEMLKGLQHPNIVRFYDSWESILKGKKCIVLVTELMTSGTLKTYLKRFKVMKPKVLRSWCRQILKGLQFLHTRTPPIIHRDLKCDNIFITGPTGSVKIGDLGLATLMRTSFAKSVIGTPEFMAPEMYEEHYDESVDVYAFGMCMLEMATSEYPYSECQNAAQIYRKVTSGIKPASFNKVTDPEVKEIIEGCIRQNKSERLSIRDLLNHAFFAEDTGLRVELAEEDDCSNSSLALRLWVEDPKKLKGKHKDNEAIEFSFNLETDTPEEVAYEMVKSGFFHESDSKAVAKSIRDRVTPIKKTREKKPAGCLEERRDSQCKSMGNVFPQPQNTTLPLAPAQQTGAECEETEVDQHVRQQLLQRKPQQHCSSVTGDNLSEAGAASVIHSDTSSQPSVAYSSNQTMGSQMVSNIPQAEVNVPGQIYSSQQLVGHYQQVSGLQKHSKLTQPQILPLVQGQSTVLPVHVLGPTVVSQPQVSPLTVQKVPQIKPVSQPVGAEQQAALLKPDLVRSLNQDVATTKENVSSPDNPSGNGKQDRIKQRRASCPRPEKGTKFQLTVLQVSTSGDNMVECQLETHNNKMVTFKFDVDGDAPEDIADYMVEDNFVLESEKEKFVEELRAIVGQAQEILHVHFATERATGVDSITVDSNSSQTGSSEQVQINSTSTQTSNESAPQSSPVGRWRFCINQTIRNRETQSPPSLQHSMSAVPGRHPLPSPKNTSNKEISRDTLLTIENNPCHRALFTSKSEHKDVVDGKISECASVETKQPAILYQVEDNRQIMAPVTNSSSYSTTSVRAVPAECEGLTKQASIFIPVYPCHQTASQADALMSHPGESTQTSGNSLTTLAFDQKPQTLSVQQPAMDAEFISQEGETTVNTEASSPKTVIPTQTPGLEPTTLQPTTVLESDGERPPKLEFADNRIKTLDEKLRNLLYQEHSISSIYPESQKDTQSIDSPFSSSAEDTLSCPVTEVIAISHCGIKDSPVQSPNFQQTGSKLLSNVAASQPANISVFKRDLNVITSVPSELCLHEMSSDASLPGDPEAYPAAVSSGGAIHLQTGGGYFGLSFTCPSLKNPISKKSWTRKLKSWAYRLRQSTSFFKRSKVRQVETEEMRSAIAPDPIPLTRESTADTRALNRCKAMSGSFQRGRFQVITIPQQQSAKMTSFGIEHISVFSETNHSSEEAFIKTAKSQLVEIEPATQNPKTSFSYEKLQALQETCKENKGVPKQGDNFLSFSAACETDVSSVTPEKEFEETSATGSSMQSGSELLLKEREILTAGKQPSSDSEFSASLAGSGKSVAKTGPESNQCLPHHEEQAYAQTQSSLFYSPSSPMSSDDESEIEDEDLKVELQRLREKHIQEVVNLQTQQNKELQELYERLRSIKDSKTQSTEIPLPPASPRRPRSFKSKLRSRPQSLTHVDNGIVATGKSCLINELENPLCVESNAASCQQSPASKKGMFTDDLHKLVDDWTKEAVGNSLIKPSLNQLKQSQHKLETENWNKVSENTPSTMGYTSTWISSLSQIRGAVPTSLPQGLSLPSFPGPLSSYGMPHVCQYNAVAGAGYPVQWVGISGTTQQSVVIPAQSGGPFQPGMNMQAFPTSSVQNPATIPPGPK
UniProt Q9H422, sequence (whole entry, looked up): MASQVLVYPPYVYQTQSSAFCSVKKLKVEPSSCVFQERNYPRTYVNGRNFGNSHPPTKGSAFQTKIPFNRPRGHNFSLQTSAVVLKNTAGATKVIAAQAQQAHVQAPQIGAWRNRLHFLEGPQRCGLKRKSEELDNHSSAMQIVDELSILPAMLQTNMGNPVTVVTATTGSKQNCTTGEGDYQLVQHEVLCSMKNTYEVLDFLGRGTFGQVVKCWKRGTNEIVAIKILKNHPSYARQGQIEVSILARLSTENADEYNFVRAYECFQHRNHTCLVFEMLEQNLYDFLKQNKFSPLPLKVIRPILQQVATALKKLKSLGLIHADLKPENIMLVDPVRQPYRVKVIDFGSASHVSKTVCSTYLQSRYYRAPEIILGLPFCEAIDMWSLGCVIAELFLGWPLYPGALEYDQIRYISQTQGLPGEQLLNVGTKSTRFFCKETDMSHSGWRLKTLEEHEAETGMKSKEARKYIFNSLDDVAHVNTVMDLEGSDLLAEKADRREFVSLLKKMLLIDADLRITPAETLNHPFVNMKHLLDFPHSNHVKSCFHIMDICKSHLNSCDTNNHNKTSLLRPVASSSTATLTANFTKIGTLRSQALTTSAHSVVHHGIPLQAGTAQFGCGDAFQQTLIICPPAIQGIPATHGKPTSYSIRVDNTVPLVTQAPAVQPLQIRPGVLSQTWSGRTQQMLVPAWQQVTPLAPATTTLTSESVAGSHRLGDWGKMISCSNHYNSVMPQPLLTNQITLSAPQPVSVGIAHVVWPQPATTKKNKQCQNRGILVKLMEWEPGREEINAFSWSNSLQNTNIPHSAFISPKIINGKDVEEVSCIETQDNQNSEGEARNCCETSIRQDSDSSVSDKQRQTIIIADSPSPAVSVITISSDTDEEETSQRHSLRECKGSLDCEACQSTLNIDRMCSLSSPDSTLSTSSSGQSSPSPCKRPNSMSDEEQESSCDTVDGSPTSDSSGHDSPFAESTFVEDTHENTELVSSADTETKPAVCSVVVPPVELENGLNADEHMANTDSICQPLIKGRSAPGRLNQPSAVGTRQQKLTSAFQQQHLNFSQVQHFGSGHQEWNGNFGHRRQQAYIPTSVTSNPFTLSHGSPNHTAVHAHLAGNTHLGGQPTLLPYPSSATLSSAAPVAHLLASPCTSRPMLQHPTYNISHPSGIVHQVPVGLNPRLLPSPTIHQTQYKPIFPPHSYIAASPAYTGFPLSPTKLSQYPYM

SMILES	tested on	test	system	conditions	endpoint	value
CCc1cc(-c2noc(-c3cc(OC)nc(C4CCCC4)c3)n2)cc(C)c1OC[C@@H](O)CO	–	–	Wistar rat, plasma	oral, 3 mg/kg, 48 h, single dose	concentration	32 ng/mL
CCOC(=O)[C@@]12C[C@@H]1[C@@H](n1ccc3c(NC)nc(C#Cc4ccc(Cl)s4)nc31)[C@H](O)[C@@H]2O	–	–	male Sprague-Dawley rat, plasma	intravenous, 0.5 mg/kg, 30 min	concentration	11.8 ng/mL
O=c1nc(N2CCN(CC3CCCCC3)CC2)sc2c([N+](=O)[O-])cc(C(F)(F)F)cc12	–	–	CD-1 mouse, lung	intravenous, 10 mg/kg, 1 h	concentration	2190 ng/mL
C=CC(=O)N1CCC(COCC(=O)N2CCN(c3nc(-c4cnc(N)nc4C(F)F)nc(N4CCOC[C@@H]4C)n3)CC2)CC1	COQ8B (Homo sapiens, UniProt Q96D53)	binding, competition with immobilised ligand	–	1 µM	remaining binding	90%
COc1cccc(-c2n[nH]c(SCc3ccccn3)n2)c1OC	–	–	female Sprague-Dawley rat, plasma	oral, 30 mg/kg, 30 min, single dose	concentration	34800 ng/mL
Cc1cc([C@@H](C)Nc2ccccc2C(=O)O)c2nc(N3CCC(F)(F)CC3)c(C#N)c(=O)n2c1	BMPR2 (Homo sapiens, UniProt Q13873)	binding, competition with immobilised ligand	–	10 µM	remaining binding	41%
O=C1CCC(N2Cc3cc(CO)c(F)cc3C2=O)C(=O)N1 (stereo not drawn)	–	–	male CD-1 mouse, plasma	intravenous, 1 mg/kg, 1 h	concentration	36.7 ng/mL
COc1cc(-c2cncc3c2CN(C)Cc2cc(N4CCNCC4)ccc2-3)cc(OC)c1OC	WNK3 (Homo sapiens, UniProt Q9BYP7)	enzyme activity, inhibitor	–	1 µM	remaining activity	106%
Cc1noc(C)c1Cn1cc(N2C(=O)CN(Cc3cccc(O)c3)C2=O)cn1	–	–	male Sprague-Dawley rat, plasma	oral, 30 mg/kg, 30 min	concentration	38.5 ng/mL
COc1ccc2c(=O)n(C)c(-c3ccccc3)nc2c1	–	–	male Sprague-Dawley rat, lung	oral, 30 mg/kg, 2 h, single dose	concentration	23.4 ng/g
CNc1ncc2c(/C=C/C(=O)N3CCC(OC)CC3)nn(Cc3cccc(C(F)(F)F)c3)c2n1	HIPK3 (Homo sapiens, UniProt Q9H422)	enzyme activity, inhibitor, radiometric	–	1 µM	remaining activity	96%
NCc1cc2c(cc1F)C(=O)N(C1CCC(=O)NC1=O)C2 (stereo not drawn)	–	–	male CD-1 mouse, plasma	oral, 10 mg/kg, 4 h	concentration	16.3 ng/mL
